# Measurements of several laboratories.
# Each line is one published result; not all experiments were run side by side. Values joined by “and” are separate records of one study, mostly repeats; a detail may differ. ± marks the error that the study gave.
SMILES,assay,test system,conditions,how to read,remaining compound
CC1(C)C(=CC=C(C=CC2=[N+](CCC[N+](C)(C)C)c3ccc(S(=O)(=O)[O-])cc3C2(C)C)Oc2ccc(CCC(=O)[O-])cc2)N(CCC[N+](C)(C)C)c2ccc(S(=O)(=O)[O-])cc21,,100% serum,"24 h, pH 7.4, 37 °C",,99%
C=C1C[C@@]23CC[C@H]4[C@@](C)(CCC[C@@]4(C)C(=O)O[C@@H]4O[C@H](CO)[C@@H](O)[C@H](O)[C@H]4O)[C@@H]2CC[C@]1(O[C@@H]1O[C@H](CO[C@H]2O[C@H](CO)[C@@H](O)[C@H](O)[C@H]2O)[C@@H](O)[C@H](O)[C@H]1O[C@@H]1O[C@H](CO)[C@@H](O)[C@H](O)[C@H]1O)C3,HPLC,Britton-Robinson buffer,"0.05 % w/v, time not given, pH 10",reference: initial,85.2 ± 1.04%
CCC1CC2C(C)=CC3C(=O)CCCC3C=CC(C)=CC2C(=O)O1 (centres unmarked),,mouse plasma,"10 µM, 2 h, 37 °C",,106%
CCCCCCCCC=CCCCCCCCC(=O)OC(COC(=O)Cc1c(C)n(C(=O)c2ccc(Cl)cc2)c2ccc(OC)cc12)COP(=O)([O-])OCC[N+](C)(C)C (centres unmarked),,Clark-Lubs buffer,"4 mg/mL, 24 h, pH 1.2, 37 °C",,13.7 ± 2.32%
CC(C)(CN)S[Se]Cc1ccc(-c2cccc(C(O)c3ccc(Cl)c(Cl)c3)c2)cc1 (centres unmarked),,rat liver microsomes with NADPH,1 h,,77%
CC1=C(C2=C(C)C(=O)c3c(cc(O)c(O)c3Cc3ccccc3)C2=O)C(=O)c2cc(O)c(O)c(Cc3ccccc3)c2C1=O (racemic),,solid,"100 days, room temperature",,98 ± 0.5%
[Ru+2].c1ccc(-c2cccc(-c3ccccn3)n2)nc1.c1cnc(-c2cnccn2)cn1.c1cnccn1,,water,"24 h, 37 °C",,100%
NS(=O)(=O)Cc1ccccc1Nc1c(Cl)cccc1Cl,,human liver microsomes,"30 min, added: NADPH",,82 ± 1.5%
OC(CN1CCC2(CC1)CC(O)c1ccc3ccccc3c1O2)c1ccc(F)c(F)c1 (centres unmarked),,mouse liver microsomes,60 min,,15.6%
Cc1ccc(OCC(=O)N(Cc2cccs2)c2ccn[nH]2)cc1,,dog liver microsomes,"10 µM, 60 min, added: NADPH",,~7.67%
CC1=C(C=O)C(C)(C)CC=C1,,mouse plasma,"500 µM, 4 h",,31%
CCCCCCCCCCCCCCCC(=O)N[C@@H](CCCCN)C(=O)N[C@H](C(=O)N[C@H](C(=O)N[C@@H](CCCCN)C(=O)N[C@@H](CO)C(=O)O)[C@@H](C)O)[C@@H](C)O,LC-MS/MS,hairless mouse skin homogenate,"40 µg/mL, 60 min, pH 7.4, 37 °C",,11.2%
CC12CC3CC(C)(C1)CC(NC(=O)NC1CCC(Oc4ccc(C(=O)O)cc4)CC1)(C3)C2 (centres unmarked),,human liver microsomes,"1 µM, 30 min, 37 °C, 1 mg/mL microsomes, added: NADPH",,8 ± 2%
CO[C@@H](C(N)=O)[C@H](NC(=O)c1ccc(NC(=O)c2ccc([N+](=O)[O-])cc2)cc1)C(=O)Nc1ccc(C(=O)Nc2ccc(C(=O)Nc3ccc(C(=O)O)cc3)c(O)c2OC(C)C)cc1,,rat plasma,4 h,,66%
C[C@H](CCC(=O)NCCc1ccc(-c2ccccc2)cc1)[C@H]1CC[C@H]2[C@@H]3CC[C@@H]4CC(=O)CC[C@]4(C)[C@H]3CC[C@]12C,,simulated intestinal fluid,2 h,,99.1%
O=C(O)Cc1cc(F)ccc1Nc1c(Cl)cccc1Cl,,human liver microsomes,"30 min, added: NADPH",,44 ± 1%
C=C1C(=O)OC2C1CCC(COC(=O)Nc1ccc(C(F)(F)F)cc1)=C1CCC(C)(O)C12 (centres unmarked),HPLC,mouse serum,"24 h, 50% and 100% serum",,25 to 50%
[Ru+2].c1ccc(-c2cccc(-c3ccccn3)n2)nc1.c1ccc2nc(-c3ccc4ccccc4n3)ccc2c1.c1cnccn1,,water,"24 h, 37 °C",,63%
CC12CC3CC(C1)CC(NC(=O)NC1CCC(Oc4ccc(C(=O)O)cc4)CC1)(C3)C2 (centres unmarked),,human liver microsomes,"1 µM, 30 min, 37 °C, 1 mg/mL microsomes, added: NADPH",,64 ± 6%
C[C@H](CCC(=O)NCCC(c1ccccc1)c1ccccc1)[C@H]1CC[C@H]2[C@@H]3CC[C@@H]4CC(=O)CC[C@]4(C)[C@H]3CC[C@]12C,,simulated intestinal fluid,2 h,,99.3%
Fc1cc(Cl)c(Nc2ccccc2Cc2nnn[nH]2)c(Cl)c1,,human liver microsomes,"30 min, added: NADPH",,90 ± 8.3%
CN(C)c1ccc(NC(=S)N(C)c2ccccc2)cc1,metabolic stability,mouse liver microsomes,"3 µM, 30 min, added: NADPH 1 mM",,74%
C=C(NC(=O)[C@@H]1CCCN1C(=O)C(C)(C)NC(=O)OCc1ccccc1)C(=O)N[C@@H](C)C(=O)OC,1H NMR,DMSO-d6,"40 min, room temperature, added: cysteamine 2 equiv",,65%
COc1cc(NC(C)=O)c2c(c1O)-c1c(OC)c(OC)cc3c1C(C2)N(C)CC3 (centres unmarked),,rat lung homogenate,"100 µg/mL, 24 h, room temperature, post-preparative storage",,93.5 ± 3.8%
CCc1c2c(nc3ccc(O)cc13)-c1cc3c(c(=O)n1C2)COC(=O)[C@@]3(CC)OC(=O)[C@H](N)C(C)C,,PBS,"5 µM, 120 min, 37 °C",,50%
Fc1ccc(Nc2c(Cl)cccc2Cl)c(Cc2nnn[nH]2)c1,,human liver microsomes,"30 min, added: NADPH",,74 ± 6.4%
O=C(Cc1ccc(-c2ccc(OCCN3CCOCC3)cc2)cn1)NCc1ccc(F)cc1,,mouse liver microsomes,"30 min, added: NADPH",,38.6 ± 0.6%
Cc1cccn2nc(-c3ccc(F)cc3)c(-c3ccncc3)c12,,mouse liver microsomes,"1 µM, 0.5 h",,< 1%
COc1cc(C2c3cc4c(cc3C(OC3OC5COC(C)OC5C(O)C3O)C3COC(=O)C23)OCO4)cc(OC)c1OC(=O)OC1C=CCCC(C)(C(=O)NC(CC(=O)O)C(=O)O)CC1 (centres unmarked),,mouse plasma,"1 µM, time not given, 37 °C",,65.8%
Cc1ccc(N2C(=O)c3ccccc3NC23C(=O)N(C)c2ccc(Br)cc23)cc1 (centres unmarked),,human plasma,18 h,,106 ± 11%
CCCC(CCC)NC(=O)c1ccc(OC)c(O)c1,,rat liver microsomes,"1.0 µM, 20 min",,68.4%
N=C(N)NCCC[C@H](NC(=O)[C@@H]1CCCN1C(=O)[C@H](Cc1ccccc1)NC(=O)[C@@H]1CCCN1C(=O)[C@H](Cc1c[nH]cn1)NC(=O)[C@@H](N)Cc1ccccc1)C(=O)O,LC-MS/MS,Sprague Dawley rat plasma,"5 ng/mL, 10 min, room temperature",,52.7 ± 12.9%
Oc1ccccc1-c1nn(-c2ccccn2)[n+](-c2ccccc2)n1.[Br-],HPLC,fetal bovine serum,24 h,,100%
CC(C)Cn1c(SCC(=O)N2CCc3ccccc3C2)nc2cc(Cl)ccc2c1=O,,rat plasma,1 h,,71.5%
CCCC(CCC)NC(=O)c1ccc(O)c(OC)c1,,rat liver microsomes,"1.0 µM, 5 min",,106%
CSCC(NC(=O)c1cc(Cl)ccc1Cl)C(=O)NC(CC(C)C)B(O)O (centres unmarked),,monkey liver microsomes,"3 µM, 60 min, pH 7.4, added: NADPH",,51 ± 0.54%
COC(=O)c1ccc2c(c1)NC(=O)/C2=C(\Nc1ccc2c(c1)CCN2C(=O)CN1CCOCC1)c1ccccc1,,CD-1 mouse plasma,"1 µM, 4 h, 37 °C",,85.2% and 85%
CCCCCCCCCCCCCCCC(=O)OC[C@H]1O[C@@H](n2cc(F)c(N)nc2=O)CS1,,human plasma,"1 µM, 90 min, 37 °C",reference: 0 min,20%

# A few entries again:
SMILES,assay,test system,conditions,how to read,remaining compound
CCCC(CCC)NC(=O)c1ccc(O)c(OC)c1,,rat liver microsomes,"1.0 µM, 5 min",,106%
NS(=O)(=O)Cc1ccccc1Nc1c(Cl)cccc1Cl,,human liver microsomes,"30 min, added: NADPH",,82 ± 1.5%
CC1(C)C(=CC=C(C=CC2=[N+](CCC[N+](C)(C)C)c3ccc(S(=O)(=O)[O-])cc3C2(C)C)Oc2ccc(CCC(=O)[O-])cc2)N(CCC[N+](C)(C)C)c2ccc(S(=O)(=O)[O-])cc21,,100% serum,"24 h, pH 7.4, 37 °C",,99%
N=C(N)NCCC[C@H](NC(=O)[C@@H]1CCCN1C(=O)[C@H](Cc1ccccc1)NC(=O)[C@@H]1CCCN1C(=O)[C@H](Cc1c[nH]cn1)NC(=O)[C@@H](N)Cc1ccccc1)C(=O)O,LC-MS/MS,Sprague Dawley rat plasma,"5 ng/mL, 10 min, room temperature",,52.7 ± 12.9%
OC(CN1CCC2(CC1)CC(O)c1ccc3ccccc3c1O2)c1ccc(F)c(F)c1 (centres unmarked),,mouse liver microsomes,60 min,,15.6%
